Measured values collected from several papers.
Protocols differ between the studies behind these lines. Values joined by “and” are separate records of one study, mostly repeats; a detail may differ. ± marks the error that the study gave. Converted amounts (≈) assume the structure as drawn.

Cn1ncc(-c2ccc3c(=O)[nH]nc(CN)c3c2)c1-c1c(F)c(Cl)cc(OC2CC2)c1C#N has an IC50 of 60 nM (SU.86.86; cell viability, inhibitor, CellTiter-Glo; 120 h, baseline-subtracted).
COc1cc(N2CCN(C(=O)C3CCCN3)CC2)ccc1Nc1ncc(Cl)c(Nc2ccccc2P(C)(C)=O)n1 (centres unmarked): “early apoptotic cells” 4.64% and 4.41% and 4.53% (Ba/F3 EML4-ALK; flow cytometry; concentration not given, 6 h).
COc1cc(/C=C/C(=O)/C=C(O)/C=C/c2ccc(OCC(=O)N3CCOCCOCCOCCOCCOCC3)c(OC)c2)ccc1OCC(=O)N1CCOCCOCCOCCOCCOCC1 gave an inhibition of 44.7% (COS-7; cell growth or viability, SRB; 5 µM).
CCCCCCC(=O)[O][Pt]([NH2])([NH2])([Cl])([Cl])[O]C(=O)CCC(C)C1CCC2C3CCC4CC(O)CCC4(C)C3CCC12C (centres unmarked): “cells in G2 phase” 28.7% (PC-3; PI flow cytometry; 2 µM, 48 h).
CN1CCCNC(=O)c2cccc(c2)C(=O)NCCCN(C)CCCNc2cccc3c2C(=O)c2cccc(c2C3=O)NCCC1 — result for “log2 fold change”: -0.414 (SAS; RNA-Seq, measured: BUD31 mRNA; 1 µM, 6 h; reference: untreated cells).
The fold regulation of CCN(CC)CC(=O)Nc1cccc(-n2cc(-c3ccc4ccc(-c5cn(-c6cccc(NC(=O)CN(CC)CC)c6)nn5)cc4c3)nn2)c1 is reported as -1.84 (RCC4; PCR angiogenesis array, measured: FN1; 5 x IC50, 6 h, normoxia; reference: untreated).
COc1cc(C2C(NC(=O)c3ccc(NC(=O)OC(C)(C)C)cc3)(C(=O)O)C(c3ccc(OC(=O)c4cccs4)c(OC)c3)C2(NC(=O)c2ccc(NC(=O)OC(C)(C)C)cc2)C(=O)O)ccc1OC(=O)c1cccs1 (centres unmarked) gave an EC50 of 75.9 nM (GLP1R (Homo sapiens, UniProt P43220, L388A); cAMP, agonist).
Cn1c(=O)n(C2CCC(=O)NC2=O)c2ccc(C3CCN(CC(=O)Nc4cccc(CS(=O)(=O)N5CC[C@H](Nc6cccc(-c7sc(C(=O)O)c(OCC(=O)O)c7Cl)c6)CC5(C)C)c4)CC3)cc21 (some centres unmarked) has a pSTAT1 level of 85.7% and 89.8% and 84.3% and 81.1% and 81.4% and 80.6% (B16-F10; HTRF, measured: phospho-STAT1 Tyr701; 0.123 µM, together with: IFN-γ; reference: min-max normalised).
COC(=O)c1cc(NC2=NC(=O)C(=Cc3ccc(C)cc3)S2)ccc1OC(C)=O gave a metabolite level of -1.01 fold change (MCF7; GC-MS, measured: L-Threonine; 1 µM; reference: DMSO).
The maximum inhibition of C=C1C(=O)OC2C1CCC(C)(O)C13C=CC(C)(C21)C1(C3)C(=O)OC2C3C(C)=CCC3C(C)(O)CCC21 (centres unmarked) is reported as 53.2 ± 3.45% (AML12 mouse hepatocytes; lipid accumulation, Nile Red staining; maximum safe concentration, 24 h, together with: palmitic acid/oleic acid).
For COc1cccc(Nc2nc(NCC3CCCO3)c3ccccc3n2)c1.Cl (centres unmarked), the relative translation was 79.9% (Trypanosoma cruzi; reporter mRNA translation, inhibitor, measured: capped polyadenylated Renilla luciferase mRNA; cell-free extract; concentration not given; reference: control RNA).
Under “IC50 fold reduction”, CCCCCC(=O)[O][Pt]([Cl])([Cl])[O]C(=O)CCCCC.N.N is recorded as 1.9 fold (A549/DDP cisplatin-resistant; together with: survivin siRNA transfection; reference: non-transfected over transfected).
With CCN(CC)CCNC(=S)Nc1ccc2nc(N3CCN(CC)CC3)cc(C)c2c1 the GFP-positive cells was 4.08% (U2OS SSA-GFP reporter; single-strand annealing, flow cytometry; 20 µM).
CO[C@@H]1[C@@H](OC(N)=O)[C@@H](O)[C@H](Oc2ccc3c(O)c(NC(=O)c4ccc(O)c(CC=C(C)C)c4)c(=O)oc3c2C)OC1(C)C has a colony survival of 77.9% (HCT-116 BRCA2 wild-type; 250 µM, replicate A; reference: untreated).
COc1ccc2c(c1)CCCN2S(=O)(=O)C1CC2OC1C(c1ccc(O)cc1)=C2c1ccc(O)cc1 (centres unmarked) gave an Emax of -0.7% (MCF7 3xERE-luc, steroid-deprived; ERE luciferase reporter, agonist; reference: vehicle).
For CC(C)c1ccc(N(C)c2ccc3c(c2)OCC[C@H]3CNc2cnccc2C(=O)O)cc1, the IC50 was 13 nM (HCC1806; cell growth or viability, ATP luminescence; 7 days).
With Cc1ccc(-n2cc(CSc3nc4ccccc4n3Cc3cn(-c4ccc(C)cc4)nn3)nn2)cc1 the viability was 9.26% (MDA-MB-231; MTT; 125 ppm).
For O=C(C[Se]C(=O)c1cc2ccccc2[nH]1)Nc1cccc(C(F)(F)F)c1, the GI50 was 1470 nM (NCI60 CNS cancer panel; five-dose screen).
Cc1c(Cc2ccccc2)c(NCCN(C)C)n2c(nc3ccccc32)c1C#N has a relative translation of 114% (Trypanosoma cruzi; reporter mRNA translation, inhibitor, measured: capped polyadenylated Renilla luciferase mRNA; cell-free extract; concentration not given; reference: control RNA).
For CC(=O)NCCCN(C)CCCNc1cccc2c1C(=O)c1cccc(NCCCN(C)CCCNC(C)=O)c1C2=O, “log2 fold change” read -0.314 (SAS; RNA-Seq, measured: DKK1 mRNA; 1 µM, 6 h; reference: untreated cells).
Cc1cc(NC(=O)c2cccc(NC(=O)/C(C#N)=C/C(C)(C)C)c2)ccc1Nc1nccc(-c2cccnc2)n1 has a reporter activity of 0.956 (HEK293 AP1 reporter cells; AP-1 reporter gene, inhibitor; 1 µM, 6 h, unit not given, together with: PMA; reference: PMA alone).
CCCCN1C(=O)c2cccc3c(NCCCCN4CCOCC4)ccc(c23)C1=O: “Pearson's correlation coefficient” 0.86 ± 0.02 (BHK-21; confocal microscopy, measured: lysosome colocalisation; 0.2 µM, together with: 0.3 µM LysoTracker Deep Red).
With Cc1cc(NC2CCN(C)CC2)ccc1-c1cc2c(N3CCC[C@H](C(=O)N[C@H](C)c4ccccc4)C3)ncnc2[nH]1 the inhibition was 22.6% (KARPAS-299; cell growth or viability, MTT; 0.04 µg/mL, 72 h).
CO[C@@H]1[C@@H](OC(=O)c2ccc(C)[nH]2)[C@@H](O)[C@H](Oc2ccc3c(O)c(NC(=O)c4c[nH]c(C(=O)Nc5c(O)c6ccc(O[C@@H]7OC(C)(C)[C@H](OC)[C@@H](OC(=O)c8ccc(C)[nH]8)[C@H]7O)c(C)c6oc5=O)c4C)c(=O)oc3c2C)OC1(C)C has a cell number of 6% (HaCaT Tet-On cells, doxycycline-induced; 15 µM).
C=C1C(=O)OC2C1CCC(C)(O)C13C=CC(C)(C21)C1(C3)C(=O)OC2C3C(C)=CCC3C(C)(OC(C)=O)CC(O)C21 (centres unmarked) gave a maximum inhibition of 12.3 ± 1.48% (AML12 mouse hepatocytes; lipid accumulation, Nile Red staining; maximum safe concentration, 24 h, together with: palmitic acid/oleic acid).
The IC50 of CCOc1cncc(-c2ccc(NC(=O)C3(c4ccnc(NS(=O)(=O)C5CC5)n4)CCOCC3)nc2)n1 is reported as 10000 nM (lung cancer; cell viability, CellTiter-Glo; DMSO 0.1%; 72 h, line code 1072).
Under “apoptotic cells (early plus late)”, Cc1cc(Cl)cc(-c2ccnc3cc(CN4C(=O)C5C(C4=O)C5(C)C)sc23)c1C[C@@H]1CNCCO1 (some centres unmarked) is recorded as 38.4% and 35.4% and 26.2% and 31.3% and 42.3% and 35% (CHP-212 parental (wild-type USP7); annexin V-PI flow cytometry; 0.3 µM, 48 h).
With COC(=O)c1cc(NC2=NC(=O)C(=Cc3ccc(N(C)C)cc3)S2)ccc1OC(C)=O the metabolite level was -0.65 fold change (MCF7; GC-MS, measured: Phosphorylethanolamine; 1 µM; reference: DMSO).
CNS(=O)(=O)Nc1nccc(Cc2c(C)c3ccc(Oc4ncccc4F)cc3oc2=O)c1F has an IC50 of 25.1 nM (SNU878; cell viability; 7 days).
For CCC(=O)N(CC#N)S(=O)(=O)c1ccc(C)cc1, “pseudo-first-order rate constant” read 35.3 h⁻¹ (reaction with N-acetyl-lysine, HPLC-MS; pH 10.2, together with: N-α-acetyl-lysine).
CCn1nc(Cl)c2c1-c1cnc(N)c(c1)O[C@H](C)c1cc(F)ccc1-c1nn(C)cc1C2 gave an Emax of 99.8% (Ba/F3 EML4-ALK variant 1 S1206Y; cell viability).
For O=CCNCCOn1c(=O)n(OCCNCCO)c(=O)n(OCCNCCOn2c(=O)n(OCCNCCO)c(=O)n(OCCNCCO)c2=O)c1=O, the viability was 52.6% (A549; cell growth or viability, MTT; 12.5 µg/mL, 24 h).
Under “log2 fold change”, Cc1ncsc1-c1ccc(C(C)NC(=O)C2CC(O)CN2C(=O)C(NC(=O)CCCCCCCCCCN2CCCC(Nc3ncc(Cl)c(Nc4ccccc4S(=O)(=O)C(C)C)n3)C2)C(C)(C)C)cc1 (centres unmarked) is recorded as -1.32 (22Rv1; RNA-seq, measured: SCYL3 mRNA; concentration not given; reference: DMSO).
With C=CC(=O)N1[C@@H](c2ccc3c(c2)OCO3)c2[nH]c3ccccc3c2C[C@H]1C(=O)NC1CC1 the neuron degeneration was 83.9% and 80.9% (rat DRG neurons; 0.1235 µM, 48 h, together with: vincristine 40 nM).
With CC[C@H](C)[C@@H]1NC(=O)[C@H](CCSC)NC(=O)[C@H](Cc2c[nH]c3ccccc23)NC(=O)[C@H](CC(N)=O)NC(=O)[C@@H](NC(=O)CCOCCOCCOCCNC(=O)CN2CCN(CC(=O)O)CCN(CC(=O)O)CC2)CSSC[C@@H](C(=O)O)NC(=O)[C@H](CCC(=O)O)NC(=O)[C@H](CCCCN)NC(=O)[C@H](CC(N)=O)NC1=O [gallium-68 labelled] the cell uptake was 3.34 ± 0.38% (activated human PBMCs; 60 min).
Cn1ncc2cc(-c3cncc(Cl)c3N3CCC4(CCNC4=O)CC3)ccc21: “log2 fold change” 1.38 (LS174T; gene expression, microarray, measured: POU2AF1 mRNA; concentration not given, 4 h; reference: untreated cells).
For COc1ccccc1-c1ccncc1C(=O)Nc1nnc(OCc2ccc(Cl)cc2)s1, the colony count was 6 and 5 and 4.5 (DLD-1 BRCA2-/-; 8 µM, mean of replicates).
C=C1C(=O)OC2C1CCC(C)(O)C13C=CC(C)(C21)C1(C3)C(=O)OC2C3C(C)C(=O)CC3C(=C)CC(OC(C)=O)C21 (centres unmarked) — result for NEFA content: “decreased” (AML12; concentration not given, concentration-dependent, together with: palmitate/oleate).
COc1cccc(OC)c1-c1cc(C(=O)NC2(C(=O)O)C3CC4CC(C3)CC2C4)nn1-c1ccc(C(=O)N(C)CCCN(C)C(=O)[C@H](CCCCNC(=O)[C@H](CC(C)C)NC(=O)C2OC2C(=O)O)NC(=O)CN2CCN(CC(=O)[O-])CCN(CC(=O)[O-])CCN(CC(=O)[O-])CC2)cc1C(C)C.[177Lu+3] (mixture of isomers) gave an internalized fraction of 4.96 ± 0.22% (HT-29; concentration not given, 120 min; reference: added activity).
COc1ccc(CSC2C3=C(CCCC3=O)Oc3ccc(Br)cc32)cc1 (centres unmarked) gave an IC20 of 22.2 µg/mL (≈ 51.5 µM) (3T3-L1; cell growth or viability, MTT; 72 h).
For CN(C)c1ccc(-n2cc(COC(=O)[C@@]3(C)C=C(C(=O)OC(C)(C)C)C(=O)CC3)nn2)cc1, the pRSK/tubulin ratio was 0.219 (HeLa; quantitative western blot; concentration not given, 15 (unit not given), together with: EGF).

For quick reference, copied from above:
CN1CCCNC(=O)c2cccc(c2)C(=O)NCCCN(C)CCCNc2cccc3c2C(=O)c2cccc(c2C3=O)NCCC1 — result for “log2 fold change”: -0.414 (SAS; RNA-Seq, measured: BUD31 mRNA; 1 µM, 6 h; reference: untreated cells).
The maximum inhibition of C=C1C(=O)OC2C1CCC(C)(O)C13C=CC(C)(C21)C1(C3)C(=O)OC2C3C(C)=CCC3C(C)(O)CCC21 (centres unmarked) is reported as 53.2 ± 3.45% (AML12 mouse hepatocytes; lipid accumulation, Nile Red staining; maximum safe concentration, 24 h, together with: palmitic acid/oleic acid).
CCn1nc(Cl)c2c1-c1cnc(N)c(c1)O[C@H](C)c1cc(F)ccc1-c1nn(C)cc1C2 gave an Emax of 99.8% (Ba/F3 EML4-ALK variant 1 S1206Y; cell viability).
Cc1c(Cc2ccccc2)c(NCCN(C)C)n2c(nc3ccccc32)c1C#N has a relative translation of 114% (Trypanosoma cruzi; reporter mRNA translation, inhibitor, measured: capped polyadenylated Renilla luciferase mRNA; cell-free extract; concentration not given; reference: control RNA).
